# Measurements from different studies.
# Each numbered part is a random draw from the data of one study; scales do not carry over between parts.

# Study 1 — technique: protein binding microarray; molecule type: double-stranded DNA, one strand shown; matrix: in vitro; concentration: not given; baseline: not given; reading: higher = stronger binding
# Target: Histone acetyltransferase KAT6A, winged helix 2, GST fusion (KAT6A, Homo sapiens, UniProt Q92794, residues 85-181)
# Setting: 8-mer, flanks averaged, mean of 2 arrays, mostly near background
# Residues (chain): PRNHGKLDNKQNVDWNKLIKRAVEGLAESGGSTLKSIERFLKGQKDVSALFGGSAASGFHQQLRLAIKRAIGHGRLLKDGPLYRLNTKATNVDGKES
Sequence,E-score
ATCGCCCC,-0.0622
ACAGGCCG,0.0508
CTTGTCTC,0.127
GGAGGGCA,0.0892
CGCCCCAC,0.0952
CAGCTGGC,0.0851
CAGTGGCA,0.0372
AGTTTTAG,-0.00722

# Study 2 — technique: RNA Bind-n-Seq; molecule type: RNA; matrix: in vitro; concentration: 365 nM; baseline: no-protein control; reading: higher = stronger binding
# Target: RNA binding protein fox-1 homolog 2, RRM domain, GST-SBP tag (RBFOX2, Homo sapiens, UniProt O43251-10, residues 100-194)
# Setting: natural RNA segment, single round, ends assumed
# Construct (chain): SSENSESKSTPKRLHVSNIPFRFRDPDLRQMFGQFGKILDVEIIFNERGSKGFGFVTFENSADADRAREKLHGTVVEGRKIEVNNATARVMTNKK
Sequence,RBNS enrichment (R)
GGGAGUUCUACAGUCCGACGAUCCUACCUAGUACGUCAUGUUGUACUAGGUACAUGAUGCUGGUCAGCCAUCCUUAAUCCAAAAUUUUGAGUCAAGUCUUAUAAGUGGAAAAUUCCAGUGAACAUUUAUUUUGUGGAAUUCUCGGGUGCCAA,0.577
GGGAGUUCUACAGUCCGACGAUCUGGGUUGCUAACUGAACUUUGAAGACCCGCUACAAAACGCGCAGAUGUGCAGCAGAUUGGAAGGAGACACAGAUGUUCGGUUUUUUUCCUGUUUCUGAAAAGAAAUAAUAUGGAAUUCUCGGGUGCCAA,0.356
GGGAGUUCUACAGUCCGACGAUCAGUAAUACAAGCAAACAAGUGUCCGUUUUGAAUUCUGAUUUGUAAUCUGAAUACUAAACAUAUUAGACCCACCUGAAAAUAAUAUAGCCAAUUUCUAGGUAAUCUUACUGUGGAAUUCUCGGGUGCCAA,0.272
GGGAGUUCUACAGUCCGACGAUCAAAACUCAGAUGAGAUGCUCUGACUCCAUCGUGAAGUGGUCACUGAAAAAAAUGUUGCUGGUUUCUUGGGAUGAAAGAACUGAGCCAGCAUCUGAAAAAGAUCAUUUCAUUGGAAUUCUCGGGUGCCAA,0.597
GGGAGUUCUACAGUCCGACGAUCUUUUUCUUGAAUUGUAGCCAGUGAGAAAAGCAGAUAGACUGAAGAAUAUGAAGGAUAGCUGAGCUGUAGCCUCCAGAGUGGGGCAUGCCUAGGCAUAUGGCUGGCUUGGAUGGAAUUCUCGGGUGCCAA,0.771

# Study 3 — observed: enzyme activity; mode: inhibitor; concentration: 20 µM
# Target: Replicase polyprotein 1ab, polymerase (rep, Severe acute respiratory syndrome coronavirus 2, UniProt P0DTD1)
SMILES,inhibition
CC(C)(C)C(=O)OCC(=O)[C@H]1CC[C@H]2[C@@H]3CCC4=CC(=O)CC[C@]4(C)[C@H]3CC[C@]12C,-1.3%
CC1(C)N=C(N)N=C(N)N1OCCCOc1cc(Cl)c(Cl)cc1Cl,2.28%
COc1ccc2cc(-c3nc(-c4ccc([S+](C)[O-])cc4)[nH]c3-c3ccncc3)ccc2c1 (centres unmarked),0.21%
O=C(c1cn(Cc2cncn2Cc2ccc(Br)cc2)cc1-c1cccc2ccccc12)N1CCOCC1,-1.27%
CC(C)(Oc1ccc(Cl)cc1)C(=O)O,0.39%
CN1C[C@@H]2CN(c3ccc(-c4ccccc4)nn3)C[C@@H]2C1,-2.63%
O=C(O)c1cn(-c2ccc(F)cc2)c2cc(N3CCNCC3)c(F)cc2c1=O,14.8%
COc1cn(-c2ccc(-n3cccn3)cc2F)nc(-c2ccnn2-c2ccccc2)c1=O,-10.9%
C[C@H](NCc1ccc(OCc2cccc(F)c2)cc1)C(N)=O,-16%
CO[C@H]1C[C@@H]2CC[C@@H](C)[C@@](O)(O2)C(=O)C(=O)N2CCCC[C@H]2C(=O)O[C@H]([C@H](C)C[C@@H]2CC[C@@H](O)[C@H](OC)C2)CC(=O)[C@H](C)/C=C(\C)[C@@H](O)[C@@H](OC)C(=O)[C@H](C)C[C@H](C)/C=C/C=C/C=C/1C,2.9%
Nc1nc2[nH]cnc2c(=S)[nH]1,-3.13%
CN1[C@@H]2CCC[C@H]1C[C@@H](NC(=O)c1nn(C)c3ccccc13)C2,3.89%
COc1ccc(-c2nc(-c3ccc(-c4cccc(Cl)c4)o3)[nH]c2-c2ccc(OC)cc2)cc1,-5.21%
COc1cc2nc(N3CCC(N4CCCCC4)CC3)nc(NC3CCCCCC3)c2cc1OC,10.9%
Cn1nnc(-c2ccc(-c3ccc(N4C[C@H](COP(=O)(O)O)OC4=O)cc3F)cn2)n1,15.5%
CCOC(=O)c1ccccc1OC(=O)CCCCCCCC(=O)Oc1ccccc1C(=O)OCC,6.81%
CN1C(=O)COc2c(C(=O)NC3CN4CCC3CC4)cc(Cl)cc21 (centres unmarked),-1%
COc1ccc(-n2nc(C(N)=O)c3c2C(=O)N(c2ccc(N4CCCCC4=O)cc2)CC3)cc1,7.54%
CCC(Oc1ccc(Cl)cc1)C(=O)OC1C[C@H]2CC[C@@H](C1)N2C (some centres unmarked),2.52%
COc1ccc(C2CNC(=O)C2)cc1OC1CCCC1 (centres unmarked),-2.89%
C#C[C@]1(O)CC[C@H]2[C@@H]3CCC4=CCCC[C@@H]4[C@H]3CC[C@@]21C,0%
CCCOc1ccc2[nH]c(NC(=O)OC)nc2c1,-2.21%

# Study 4 — technique: protein-binding microarray; molecule type: double-stranded DNA, one strand shown; matrix: in vitro; concentration: 250 nM; setting: 60-bp whole probe; with: salmon DNA 0.4 mg/ml; baseline: random background probes; reading: higher = stronger binding; all sequences stand within: GCCTAGCAC … GTCTTGATTCGCTTGACGCTGCTG
# Target: Interferon regulatory factor 5, full length, phosphomimetic (IRF5, Homo sapiens, UniProt Q13568-2, residues 1-514, K96S/S451D/S453D/S456D/S462D)
Sequence,log fluorescence [z-score]
GACGATCTCAGTCTCGTGACGTGCTAG,-0.223
TCATCTCTCCCATTCTGACTGTGCTAG,0.417
GACGCTCTCGGTTTCGGGACGTGCTAG,3.51
GACGTTTTCAGTTCCGAGACGTGCTAG,2.42
GACGGTCTCCTACTGCAGACGTGCTAG,-0.285
GACTTTTTAGATTTTTTTTCGTGCTAG,1.13
TTAGGTATCGGTCTCGGTCAGTGCTAG,7.27
TTAGGTATCGACTTTCGATTAGTGCTA,9.25

# Further values, each from its own experiment
Structure (SMILES),organism,assay,test system,setting,endpoint,value
O=C1c2c(O)cccc2Cc2cccc(O)c21,SARS-CoV-2,cytopathic effect,Vero E6,10 µM,inhibition,-6%

# A few entries again (study 1):
Sequence,E-score
CAGTGGCA,0.0372
CTTGTCTC,0.127
GGAGGGCA,0.0892
ATCGCCCC,-0.0622
ACAGGCCG,0.0508
CGCCCCAC,0.0952
